Results pooled from the literature.
Numbers after ± are the reported error.

SMILES	cell line	test	system	conditions	how to read	measurement	value
COc1cc(CNC(=O)C[C@H](C)CCC=C(C)C)ccc1OCc1cn(-c2cccc(C(F)(F)F)c2)nn1	M14 melanoma cells	SRB	–	10 µM, 48 h	–	growth percent	92.1%
FC(F)(F)c1ccc(CNc2nc(NCc3ccccc3)c3ccccc3n2)cc1	SW-403	cell growth or viability	–	72 h	–	GI50	1.6 µM
Cc1[nH]nc2c1N=C(c1ccccc1Cl)c1cnc(N3CCOCC3)cc1N2	HCC1806	Western blot, refers to: phospho-Aurora A/B and phospho-histone H3	–	concentration not given, 24 h, nocodazole-synchronized	–	phosphorylation	inhibited
Cc1noc(NS(=O)(=O)c2ccc(NC(=O)c3cc(-c4ccc5ccccc5c4)nc4ccccc34)cc2)c1C	mouse spleen cells	cell proliferation, MTT	–	100 µM, 72 h, added: concanavalin A 5 µg/mL	–	inhibition	46.7 ± 5.39%
Cc1ccc(/C=N/N=C(\S)Nc2cccc(S(=O)(=O)N(C)C)c2)o1	LDR	silenced GFP reporter derepression, microscopy	–	overnight	baseline: sodium butyrate	Emax	34%
C=C(C)[C@@H]1CC[C@]2(C(=O)OCO/N=[N+](\[O-])N3CCCC3)CC[C@]3(C)[C@H](CC[C@@H]4[C@@]5(C)CC[C@H](OC(C)=O)C(C)(C)[C@@H]5CC[C@]43C)[C@@H]12	B16-F10	PI flow cytometry	–	1.0 µM	–	cells in G2 phase	4.84%
Cc1nn(-c2ccc(S(=O)(=O)N[C@@H](CO)CC(C)C)cc2)c2nn3nnnc3nc12	HT-29	PI/Hoechst staining	–	1 µM, 24 h	–	apoptotic cells	32 ± 4.24%
CC1=C/C(=N\N=C(/S)Nc2cccnc2)CC(C)(C)C1	LDR	silenced GFP reporter derepression, microscopy	–	overnight	baseline: sodium butyrate	Emax	95%
C[N+]1(CC(=O)OC2CCCCCCCCCCC2)CCCCC1	LNCaP	cell viability, CellTiter-Blue	–	96 h	–	ED50	5.8 µM
COc1cc2c(Nc3ccc(NC(=O)c4ccccc4)cc3)ncnc2cc1OCCCN1CCOCC1	prometaphase cells	–	–	concentration not given	baseline: untreated	kinetochore Mad2 level	< 10%
CCN(CC)CC(=O)Nc1cccc(-n2cc(-c3ccc4ccc(-c5cn(-c6cccc(NC(=O)CN(CC)CC)c6)nn5)cc4c3)nn2)c1	RCC4	luciferase reporter	–	5 x IC50, 4 h, hypoxia	baseline: hypoxic untreated	HRE reporter activity	23.4%
COC[C@H](NC(=O)[C@H](CCc1ccccc1)NC(=O)CN1CCOCC1)C(=O)N[C@H](/C=C/S(C)(=O)=O)Cc1cccs1	HFF, non-confluent	cell viability, CellTiter-Blue	–	72 h	–	EC50	9.8 ± 2.96 µM
CC(C)c1cccc(C(C)C)c1N1CCN(c2c(C(C)C)cccc2C(C)C)C1=[Se].[Cl][Ag]	LoVo-OXP colon cancer cells	MTT	–	–	baseline: LoVo-OXP over LoVo IC50	resistance factor	1.7
CCCCN1C(=O)c2cccc3c(NCCCCCCN4CCOCC4)ccc(c23)C1=O	BHK-21	lysosome colocalization, confocal microscopy	–	0.2 µM, added: LysoTracker Deep Red 0.3 µM	–	Pearson correlation coefficient	0.88 ± 0.02
CC(C)=CCC1=C([O-])C(=O)c2ccccc2C1=O.CC(C)=CCC1=C([O-])C(=O)c2ccccc2C1=O.O.O.[Zn+2].c1cnc2c(c1)ccc1cccnc12	A2780	ICP-MS	–	concentration not given, 2 to 24 h	baseline: untreated cells	intracellular zinc level	≤ 10 fold
CC(=C(c1ccc(Cl)cc1)c1ccc(OCCN(C)C)cc1)c1ccc(Cl)cc1	60 NCI tumour cell lines	NCI one-dose screen	–	10 µM	–	mean growth inhibition	no inhibition
Cc1c2ccnc(C(=O)N[C@H](C)CN(C)C)c2cc2c3cc(OCCCN4CCN(C)CC4)ccc3n(C)c12	C9orf72 ALS iPSCs	qRT-PCR	–	50 nM, added: XRN1 or XRN2 siRNA	baseline: control siRNA	C9orf72 intron level	no effect
Oc1c(/N=N/c2ccccn2)ccc2ccccc12	LDR	silenced GFP reporter derepression, microscopy	–	overnight	baseline: sodium butyrate	Emax	75%
CCOP(=O)(CC(=O)Nc1ccc(S(=O)(=O)N(CC(N)=O)c2ccc(N(CC(N)=O)S(=O)(=O)c3ccc(OC)cc3)c3ccccc23)cc1)OCC	mouse primary cortical neurons	JC-1	–	20 µM, added: amyloid beta 1-42	–	mitochondrial membrane potential	increased
CC(=O)OC[C@H]1O[C@@H](Sc2sc(C(=O)c3ccc(Br)cc3)c(N)c2-c2nc3ccccc3s2)[C@H](OC(C)=O)[C@@H](OC(C)=O)[C@H]1OC(C)=O	SNB-19	SRB	–	10 µM, 48 h	baseline: untreated	growth	87.3%
C=C(CC)C(=O)c1ccc(OCC(=O)NCCNC(=O)COc2ccc(C(=O)C(=C)CC)c(Cl)c2Cl)c(Cl)c1Cl	CoC1/DDP cisplatin-resistant	cell growth, CCK-8	–	1.0 µM, added: cisplatin	–	sensitisation to cisplatin	~2 fold

SMILES	cell line	test	system	conditions	how to read	measurement	value
Oc1ccccc1-c1nn(-c2ccccn2)[n+](-c2ccccc2)n1.[Br-]	A2780	LIVE/DEAD flow cytometry	–	40 µM, 48 h, added: ferric ammonium citrate 50 µM	–	dead cells	2.4%
Cc1ccc(C(C)C)cc1.[Cl-].[Cl][Ru+].[Ru+].c1ccc(-c2cn(CCCCOc3ccccc3-c3nc4ccccc4s3)nn2)nc1	MCF7	PI flow cytometry, refers to: G0/G1 phase	–	4 µM, 24 h	–	cells in phase	71.2%
COC(=O)C(CCSC)NC(=O)/C=C/C=C/c1ccc(O)c(O)c1 (stereo not drawn)	HL-7702 (L-02) hepatocytes	RT-qPCR, refers to: PPARγ	–	100 µM	baseline: untreated	mRNA level	7 fold
COc1ccc([C@@H]2CC(=O)c3c(O)cc(O[C@@H]4O[C@H](CO[C@@H]5O[C@@H](C)[C@H](O)[C@@H](O)[C@H]5O)[C@@H](O[C@H]5O[C@H](CO)[C@@H](O)[C@H](O)[C@H]5O)[C@H](O)[C@H]4O)cc3O2)cc1O	A549	Matrigel Transwell invasion	–	50 µg/mL, 24 h	–	invasion	36.4 ± 6.96%
O=C(O)c1ccc(/C=C2\SC(=S)N(Cc3cccc(C(F)(F)F)c3)C2=O)cc1	mouse BMDM	–	–	concentration not given, added: nigericin	–	ASC oligomerization	decreased
CC1=CCC23OC2(C)CCC2C(CN(C)C)C(=O)OC2C13.Cl (stereo not drawn)	C6 rat glioma cells	–	–	2 mg/mL, clonogenic	baseline: control	proliferation	17.1 ± 2.06%
CC[C@H](C)[C@H](NC(=O)[C@H](CC(C)C)NC(=O)[C@@H](N)CS)C(=O)N[C@@H](CCC(=O)O)C(=O)N[C@@H](Cc1ccc(O)cc1)C(=O)NCC(=O)NCC(=O)N[C@@H](C)C(=O)N[C@@H](CC(=O)O)C(=O)N[C@@H](Cc1ccc(O)cc1)C(=O)N[C@@H](CCCCN)C(=O)N[C@H](C(=O)N[C@H](C(=O)N[C@@H](CC(N)=O)C(=O)N[C@@H](CC(C)C)C(=O)N[C@@H](CCCCN)C(=O)O)[C@@H](C)CC)[C@@H](C)O	DT40	western blot	infectious bursal disease virus	50 to 100 nM, 12 h	baseline: infected untreated	Bcl-2 protein level	increased
COc1cccc2c(NCc3ccccc3)nc(NCc3cccs3)nc12	SW-403	cell growth or viability	–	24 h	–	GI50	0.5 µM
COc1cc(CNC(=O)C[C@H](C)CCC=C(C)C)ccc1OCc1cn(-c2ccc(C#N)cc2)nn1	M14 melanoma cells	SRB	–	10 µM, 48 h	–	growth percent	88.2%
CCCCCCCCCCCCCCOc1c(O)cc(C(=O)O[C@@H]2Cc3c(O)cc(O)cc3O[C@@H]2c2cc(O)c(O)c(O)c2)cc1O	A-431	ERK phosphorylation, Western blot, refers to: phospho-ERK	–	25 µM, 24 h	–	inhibition	> 90%
COc1cc(CNC(=O)C[C@H](C)CCC=C(C)C)ccc1OCc1cn(-c2ccc(Cl)c(Cl)c2)nn1	M14 melanoma cells	SRB	–	10 µM, 48 h	–	growth percent	89%
CCC(CC)CNC(=N)NC(=N)NCCCCCCNC(=N)NC(=N)NCC(CC)CC	NCI-H1299	TMRM flow cytometry	–	1 µM, 48 h, added: oligomycin 1 µM	–	cells unable to hyperpolarize	12%
N[C@@H](CCC(=O)N[C@@H](CS[Se]Cc1ccc(-c2cc(C(F)(F)F)nn2-c2ccc(S(N)(=O)=O)cc2)cc1)C(=O)NCC(=O)O)C(=O)O	melanoma cells	–	–	–	baseline: normal cells over cancer cells	selectivity ratio	5 fold
COc1cc(CNC(=O)C[C@H](C)CCC=C(C)C)ccc1OCc1cn(-c2ccccc2F)nn1	OVCAR-5 ovarian cancer cells	SRB	–	10 µM, 48 h	–	growth percent	94.9%
COc1ccc(CC2COC(=O)C2Cc2ccc3c(c2)OCO3)cc1OC (mixture of isomers)	A2780	MTT	–	concentration not given, 72 h	–	viability	decreased
O=Cc1c(O)ccc2ccccc12	HUVEC	RNA sequencing, refers to: SPX	–	75 µM, 24 h	baseline: DMSO	log2 fold change	4.12
COc1cc(CNC(=O)C[C@H](C)CCC=C(C)C)ccc1OCc1cn(-c2ccc(Br)cc2)nn1	SNB-19 CNS cancer cells	SRB	–	10 µM, 48 h	–	growth percent	57.7%
CCCCCCCCC1(CCCCCCCC)c2cc(C#Cc3cc4[n+]5c(c3)-c3cccc[n+]3[Ir-3]536([n+]5ccccc5-4)[n+]4ccccc4-c4cc(-c5ccccc5)cc([n+]43)-c3cccc[n+]36)ccc2-c2ccc(C#Cc3cc4[n+]5c(c3)-c3cccc[n+]3[Ir-3]536([n+]5ccccc5-4)[n+]4ccccc4-c4cc(-c5ccccc5)cc([n+]43)-c3cccc[n+]36)cc21.F[P-](F)(F)(F)(F)F.F[P-](F)(F)(F)(F)F.F[P-](F)(F)(F)(F)F.F[P-](F)(F)(F)(F)F.F[P-](F)(F)(F)(F)F.F[P-](F)(F)(F)(F)F	SK-MEL-28	–	–	visible light 100 J/cm2	baseline: dark EC50 over visible-light EC50	phototherapeutic index	20
COc1ccc(NC(=O)COc2ccc(/C=C/C(C)=N/O)cc2OC)cc1	SH-SY5Y	flow cytometry	–	10 µM, added: amyloid-β 10 µM	–	cells expressing IL-6	26.7%
COc1cc(CNC(=O)C[C@H](C)CCC=C(C)C)ccc1OCc1cn(-c2ccc([N+](=O)[O-])cc2)nn1	SNB-19 CNS cancer cells	SRB	–	10 µM, 48 h	–	growth percent	84.8%
CC[C@H](C)[C@@H]1NC(=O)[C@H](Cc2cn(CCc3c(C)[nH]c4cc(Cl)cc(Cl)c34)nn2)NC(=O)[C@@H](CC(N)=O)NC(=O)[C@H](CCCNC(=N)N)NC(=O)[C@H](Cc2ccccc2)NC(=O)[C@@H](CC(C)C)NC(=O)[C@H](C)NC(=O)c2cc3cc(c2)C(=O)NC[C@@H](C(=O)N[C@@H](CCCCN)C(N)=O)NC(=O)[C@H](CCCNC(=N)N)NC(=O)[C@H](CCCNC(=N)N)NC(=O)[C@H](CCCNC(=N)N)NC(=O)[C@H](CCCNC(=N)N)NC(=O)[C@H](Cc2ccc4ccccc4c2)NC(=O)[C@H](Cc2ccccc2)NC(=O)[C@H](CCCCNC3=O)NC(=O)[C@H](CC(=O)O)NC1=O	H1299	immunoblot	–	concentration not given, 12 h	–	Akt protein level	no effect

Excerpt of the above:
SMILES	cell line	test	system	conditions	how to read	measurement	value
COc1cc(CNC(=O)C[C@H](C)CCC=C(C)C)ccc1OCc1cn(-c2ccc(Br)cc2)nn1	SNB-19 CNS cancer cells	SRB	–	10 µM, 48 h	–	growth percent	57.7%
CCCCCCCCC1(CCCCCCCC)c2cc(C#Cc3cc4[n+]5c(c3)-c3cccc[n+]3[Ir-3]536([n+]5ccccc5-4)[n+]4ccccc4-c4cc(-c5ccccc5)cc([n+]43)-c3cccc[n+]36)ccc2-c2ccc(C#Cc3cc4[n+]5c(c3)-c3cccc[n+]3[Ir-3]536([n+]5ccccc5-4)[n+]4ccccc4-c4cc(-c5ccccc5)cc([n+]43)-c3cccc[n+]36)cc21.F[P-](F)(F)(F)(F)F.F[P-](F)(F)(F)(F)F.F[P-](F)(F)(F)(F)F.F[P-](F)(F)(F)(F)F.F[P-](F)(F)(F)(F)F.F[P-](F)(F)(F)(F)F	SK-MEL-28	–	–	visible light 100 J/cm2	baseline: dark EC50 over visible-light EC50	phototherapeutic index	20
COc1ccc(NC(=O)COc2ccc(/C=C/C(C)=N/O)cc2OC)cc1	SH-SY5Y	flow cytometry	–	10 µM, added: amyloid-β 10 µM	–	cells expressing IL-6	26.7%
COc1cc(CNC(=O)C[C@H](C)CCC=C(C)C)ccc1OCc1cn(-c2ccc([N+](=O)[O-])cc2)nn1	SNB-19 CNS cancer cells	SRB	–	10 µM, 48 h	–	growth percent	84.8%
CC[C@H](C)[C@@H]1NC(=O)[C@H](Cc2cn(CCc3c(C)[nH]c4cc(Cl)cc(Cl)c34)nn2)NC(=O)[C@@H](CC(N)=O)NC(=O)[C@H](CCCNC(=N)N)NC(=O)[C@H](Cc2ccccc2)NC(=O)[C@@H](CC(C)C)NC(=O)[C@H](C)NC(=O)c2cc3cc(c2)C(=O)NC[C@@H](C(=O)N[C@@H](CCCCN)C(N)=O)NC(=O)[C@H](CCCNC(=N)N)NC(=O)[C@H](CCCNC(=N)N)NC(=O)[C@H](CCCNC(=N)N)NC(=O)[C@H](CCCNC(=N)N)NC(=O)[C@H](Cc2ccc4ccccc4c2)NC(=O)[C@H](Cc2ccccc2)NC(=O)[C@H](CCCCNC3=O)NC(=O)[C@H](CC(=O)O)NC1=O	H1299	immunoblot	–	concentration not given, 12 h	–	Akt protein level	no effect
